Measurements gathered from unrelated publications.
± marks the error that the study gave.
gyrB with GyrA: DNA gyrase subunit B, with GyrA (gyrB, Mycobacterium tuberculosis, UniProt P9WG45)
UniProt P9WG45, sequence (whole entry, looked up): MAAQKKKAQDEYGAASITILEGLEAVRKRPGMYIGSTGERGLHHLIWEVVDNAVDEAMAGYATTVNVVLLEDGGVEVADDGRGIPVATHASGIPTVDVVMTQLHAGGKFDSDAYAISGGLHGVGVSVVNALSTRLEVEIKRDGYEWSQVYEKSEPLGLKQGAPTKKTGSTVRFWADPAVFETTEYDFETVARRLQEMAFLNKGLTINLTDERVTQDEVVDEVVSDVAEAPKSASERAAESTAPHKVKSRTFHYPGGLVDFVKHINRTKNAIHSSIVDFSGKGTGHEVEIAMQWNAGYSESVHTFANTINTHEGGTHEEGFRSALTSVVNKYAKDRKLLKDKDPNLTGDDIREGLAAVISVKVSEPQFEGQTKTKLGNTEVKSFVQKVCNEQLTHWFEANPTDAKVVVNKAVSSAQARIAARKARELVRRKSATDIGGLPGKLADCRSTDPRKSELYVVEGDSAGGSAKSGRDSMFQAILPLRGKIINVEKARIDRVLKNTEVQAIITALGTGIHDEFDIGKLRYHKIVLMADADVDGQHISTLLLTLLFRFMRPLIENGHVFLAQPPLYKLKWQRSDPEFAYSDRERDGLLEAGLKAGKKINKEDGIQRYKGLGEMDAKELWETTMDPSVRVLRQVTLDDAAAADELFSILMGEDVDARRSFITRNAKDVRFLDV
Genome polyprotein protease: Genome polyprotein, protease (Coxsackievirus B3, UniProt P03313)
UniProt P03313, sequence (whole entry, looked up): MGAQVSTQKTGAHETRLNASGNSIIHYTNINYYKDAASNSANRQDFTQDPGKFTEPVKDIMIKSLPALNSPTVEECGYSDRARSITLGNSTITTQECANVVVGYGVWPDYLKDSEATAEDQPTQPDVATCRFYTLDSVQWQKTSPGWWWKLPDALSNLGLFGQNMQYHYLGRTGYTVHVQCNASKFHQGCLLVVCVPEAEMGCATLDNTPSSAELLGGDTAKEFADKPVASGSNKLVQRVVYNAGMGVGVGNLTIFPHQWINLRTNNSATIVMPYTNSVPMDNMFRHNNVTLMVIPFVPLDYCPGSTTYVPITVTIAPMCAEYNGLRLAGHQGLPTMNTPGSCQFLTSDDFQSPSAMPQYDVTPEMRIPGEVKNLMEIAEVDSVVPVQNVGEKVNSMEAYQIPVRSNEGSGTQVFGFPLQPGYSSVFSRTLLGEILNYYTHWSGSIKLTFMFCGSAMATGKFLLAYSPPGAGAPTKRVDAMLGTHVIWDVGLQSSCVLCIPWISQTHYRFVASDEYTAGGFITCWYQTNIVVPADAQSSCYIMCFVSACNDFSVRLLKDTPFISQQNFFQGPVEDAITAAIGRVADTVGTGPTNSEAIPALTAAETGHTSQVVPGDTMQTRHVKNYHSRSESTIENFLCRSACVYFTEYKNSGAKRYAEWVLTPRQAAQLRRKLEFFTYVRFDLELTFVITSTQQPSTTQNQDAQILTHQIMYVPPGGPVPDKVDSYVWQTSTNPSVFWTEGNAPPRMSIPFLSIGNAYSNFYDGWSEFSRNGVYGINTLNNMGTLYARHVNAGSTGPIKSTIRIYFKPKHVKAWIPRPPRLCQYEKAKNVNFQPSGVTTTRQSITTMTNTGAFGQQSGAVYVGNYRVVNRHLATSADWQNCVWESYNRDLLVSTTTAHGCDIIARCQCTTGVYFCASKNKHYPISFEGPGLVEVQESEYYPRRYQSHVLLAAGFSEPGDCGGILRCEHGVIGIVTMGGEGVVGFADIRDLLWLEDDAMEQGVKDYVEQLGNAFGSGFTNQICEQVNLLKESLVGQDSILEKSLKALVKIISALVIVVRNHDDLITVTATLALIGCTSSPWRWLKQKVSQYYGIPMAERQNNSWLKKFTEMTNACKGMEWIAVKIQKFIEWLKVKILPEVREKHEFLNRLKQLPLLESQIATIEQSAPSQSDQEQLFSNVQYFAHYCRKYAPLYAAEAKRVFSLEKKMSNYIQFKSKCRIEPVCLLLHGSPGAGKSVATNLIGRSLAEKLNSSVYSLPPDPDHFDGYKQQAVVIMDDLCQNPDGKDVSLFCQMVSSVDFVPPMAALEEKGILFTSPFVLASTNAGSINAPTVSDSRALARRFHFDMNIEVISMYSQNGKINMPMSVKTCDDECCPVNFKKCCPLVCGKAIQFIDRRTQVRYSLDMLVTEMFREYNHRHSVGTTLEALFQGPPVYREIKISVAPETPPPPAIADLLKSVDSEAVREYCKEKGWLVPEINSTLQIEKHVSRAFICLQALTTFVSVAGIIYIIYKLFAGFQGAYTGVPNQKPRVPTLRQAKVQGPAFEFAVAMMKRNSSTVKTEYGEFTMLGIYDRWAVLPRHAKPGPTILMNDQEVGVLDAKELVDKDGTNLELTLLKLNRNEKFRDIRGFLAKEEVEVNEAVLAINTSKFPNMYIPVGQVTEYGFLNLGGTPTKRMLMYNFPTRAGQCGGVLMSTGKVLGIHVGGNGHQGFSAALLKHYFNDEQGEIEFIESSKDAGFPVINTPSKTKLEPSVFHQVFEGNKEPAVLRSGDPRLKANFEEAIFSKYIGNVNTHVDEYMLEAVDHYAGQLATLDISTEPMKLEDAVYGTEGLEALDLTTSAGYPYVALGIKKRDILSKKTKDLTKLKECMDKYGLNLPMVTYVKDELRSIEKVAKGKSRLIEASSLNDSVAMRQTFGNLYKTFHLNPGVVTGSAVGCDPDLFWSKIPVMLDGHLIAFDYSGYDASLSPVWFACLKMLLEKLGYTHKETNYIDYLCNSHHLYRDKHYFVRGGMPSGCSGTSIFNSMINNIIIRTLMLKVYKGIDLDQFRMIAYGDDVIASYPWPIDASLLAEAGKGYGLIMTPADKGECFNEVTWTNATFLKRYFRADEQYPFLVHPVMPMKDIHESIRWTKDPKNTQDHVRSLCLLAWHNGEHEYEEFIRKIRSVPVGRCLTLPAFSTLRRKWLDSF
DNA ligase A: DNA ligase A (Mycobacterium tuberculosis, UniProt P9WNV1)
Dihydrolipoyl dehydrogenase: Dihydrolipoyl dehydrogenase (Mycobacterium tuberculosis, UniProt P9WHH9)
UniProt P9WHH9, sequence (whole entry, looked up): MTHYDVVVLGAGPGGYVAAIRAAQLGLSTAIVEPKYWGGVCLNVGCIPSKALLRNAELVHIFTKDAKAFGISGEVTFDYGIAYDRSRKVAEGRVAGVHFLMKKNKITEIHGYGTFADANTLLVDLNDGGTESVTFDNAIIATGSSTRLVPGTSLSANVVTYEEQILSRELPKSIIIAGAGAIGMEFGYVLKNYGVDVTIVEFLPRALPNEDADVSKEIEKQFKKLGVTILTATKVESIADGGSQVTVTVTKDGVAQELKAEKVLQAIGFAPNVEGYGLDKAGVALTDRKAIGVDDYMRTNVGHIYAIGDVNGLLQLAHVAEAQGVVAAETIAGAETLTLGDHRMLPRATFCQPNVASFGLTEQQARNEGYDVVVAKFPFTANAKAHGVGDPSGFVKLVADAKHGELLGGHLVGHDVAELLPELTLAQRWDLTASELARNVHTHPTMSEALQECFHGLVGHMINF
Replicase polyprotein 1ab main protease: Replicase polyprotein 1ab, main protease (Human coronavirus OC43, UniProt P0C6X6)
UniProt P28076, sequence (whole entry, looked up): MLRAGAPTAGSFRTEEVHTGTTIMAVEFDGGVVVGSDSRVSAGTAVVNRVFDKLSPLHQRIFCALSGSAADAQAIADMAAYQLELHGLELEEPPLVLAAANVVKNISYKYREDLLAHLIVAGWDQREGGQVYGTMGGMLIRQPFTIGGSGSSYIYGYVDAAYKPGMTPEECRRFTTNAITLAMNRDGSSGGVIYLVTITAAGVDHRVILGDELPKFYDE
UniProt P9WQ81, sequence (whole entry, looked up): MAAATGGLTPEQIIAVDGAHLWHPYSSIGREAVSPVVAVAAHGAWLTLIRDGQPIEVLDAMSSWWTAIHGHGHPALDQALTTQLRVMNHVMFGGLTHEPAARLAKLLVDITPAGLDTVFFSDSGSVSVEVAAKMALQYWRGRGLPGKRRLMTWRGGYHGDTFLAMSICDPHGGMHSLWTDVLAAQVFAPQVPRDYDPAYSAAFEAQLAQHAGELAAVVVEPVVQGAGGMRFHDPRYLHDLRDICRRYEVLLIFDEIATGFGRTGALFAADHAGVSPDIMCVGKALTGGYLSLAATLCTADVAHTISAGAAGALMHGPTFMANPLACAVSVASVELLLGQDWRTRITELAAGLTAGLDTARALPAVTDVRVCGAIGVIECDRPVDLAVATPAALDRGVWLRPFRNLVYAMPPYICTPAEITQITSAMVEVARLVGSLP
UniProt Q01959, sequence (whole entry, unmodified, looked up): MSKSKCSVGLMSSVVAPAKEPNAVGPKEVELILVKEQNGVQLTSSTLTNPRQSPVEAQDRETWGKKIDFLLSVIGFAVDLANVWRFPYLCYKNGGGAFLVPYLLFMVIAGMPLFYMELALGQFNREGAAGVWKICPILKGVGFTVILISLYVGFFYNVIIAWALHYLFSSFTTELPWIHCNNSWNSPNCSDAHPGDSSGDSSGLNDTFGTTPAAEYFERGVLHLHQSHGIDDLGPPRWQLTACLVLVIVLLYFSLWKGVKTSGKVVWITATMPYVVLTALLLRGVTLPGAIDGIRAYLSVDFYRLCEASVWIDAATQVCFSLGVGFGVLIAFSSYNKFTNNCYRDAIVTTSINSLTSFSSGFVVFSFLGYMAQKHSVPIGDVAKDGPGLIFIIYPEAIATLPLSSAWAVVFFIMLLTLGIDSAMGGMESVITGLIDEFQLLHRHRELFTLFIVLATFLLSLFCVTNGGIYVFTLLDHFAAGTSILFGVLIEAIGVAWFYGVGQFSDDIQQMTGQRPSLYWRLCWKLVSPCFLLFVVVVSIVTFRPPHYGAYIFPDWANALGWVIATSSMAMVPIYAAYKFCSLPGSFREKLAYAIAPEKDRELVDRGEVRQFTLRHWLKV
UniProt Q0P543, sequence (whole entry, looked up): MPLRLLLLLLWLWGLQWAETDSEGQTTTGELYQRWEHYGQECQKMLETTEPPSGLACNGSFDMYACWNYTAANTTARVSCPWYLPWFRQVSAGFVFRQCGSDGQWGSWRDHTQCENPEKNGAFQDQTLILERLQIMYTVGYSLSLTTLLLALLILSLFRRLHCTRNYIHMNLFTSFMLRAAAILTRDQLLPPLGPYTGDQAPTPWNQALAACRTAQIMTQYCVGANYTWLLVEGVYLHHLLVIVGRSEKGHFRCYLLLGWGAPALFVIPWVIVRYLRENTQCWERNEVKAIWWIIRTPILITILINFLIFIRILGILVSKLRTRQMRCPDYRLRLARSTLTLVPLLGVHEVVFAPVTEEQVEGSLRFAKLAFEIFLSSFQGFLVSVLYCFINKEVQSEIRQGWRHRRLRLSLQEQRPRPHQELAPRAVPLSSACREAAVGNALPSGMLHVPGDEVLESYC

Compound | target or system | assay | system | conditions | endpoint | result
CC1C(=NOCc2cc(-c3ccc(Cl)cc3)no2)C(C)C(c2ccc(Cl)cc2)OC1c1ccc(Cl)cc1 (stereo not shown) | gyrB with GyrA | ATPase activity, inhibitor | – | – | IC50 | 9.87 µM
CN[C@](C)(C[18F])C(=O)O | A549 tumour model | – | host not given, muscle | 30 min, tumour-bearing | tracer uptake | 1.8 %ID/g
Clc1ccc(C2C(n3ccnc3)C(c3ccc(Br)cc3)=NN2c2ccc(Cl)c(Cl)c2)cc1 (stereo not shown) | Genome polyprotein protease | enzyme activity, inhibitor | – | – | IC50 | 1.2 µM
C#CCCNC(=O)[C@@H](NC(=O)N[C@H](C(=O)N[C@H]1/C=C/CCNC(=O)/C=C/[C@H](C(C)C)NC1=O)C(C)C)C(C)C | Proteasome subunit beta type-9 (Mus musculus, UniProt P28076) | inhibitor | – | – | IC50 | 0.022 µM
CCOCC1C(c2ccc(Cl)c(Cl)c2)CC2CCC1N2C (stereo not shown) | SLC6A3 (Homo sapiens, UniProt Q01959, F326A) | transporter uptake, inhibitor, radiometric | – | – | IC50 | 0.816 µM
Cc1ccccc1N1C(=O)/C(=C/c2ccc(OCc3cccc(C(=O)O)c3)cc2)C(=O)NC1=S | Tyrosine-protein phosphatase non-receptor type 22 (Ptpn22, Mus musculus, UniProt P29352) | phosphatase activity, inhibitor | – | – | IC50 | 7.56 µM
CCOC(=O)CC(NC(=O)Nc1ccc(NC(=O)NC(CC(=O)OCC)C2OC3OC(C)(C)OC3C2OCc2ccccc2)cc1)C1OC2OC(C)(C)OC2C1OCc1ccccc1 (stereo not shown) | DNA ligase A | enzyme activity, inhibitor | – | 1 h, 25 °C, 10% DMSO, with: 50 µM NAD+ | IC50 | 225 ± 6.2 µM
Cc1cnc(N)c(S(=O)(=O)N(C)CC(=O)Nc2ccc(=O)n(C)c2)c1 | Dihydrolipoyl dehydrogenase | enzyme activity, inhibitor | – | with: 50 nM enzyme | IC50 | 2.75 µM
CCC[C@H](NC(=O)[C@H](CC(C)C)NC(=O)OCc1ccccc1)C(=O)C(=O)NCc1ccccn1 | Replicase polyprotein 1ab main protease | enzyme activity, inhibitor | – | – | IC50 | 0.34 µM
C=CC(=O)N1CCN(c2cc(-c3ccc(C4CCC4)cc3)ncc2C(=O)N[C@H](Cc2ccccc2)C(=O)NC)C(C)C1 (stereo partly shown) | Replicase polyprotein 1ab main protease | – | – | – | IC50 | > 100 µM
CC1C(=NNC(=O)c2ccncc2)C(C)C(c2ccc(Cl)cc2)OC1c1ccc(Cl)cc1 (stereo not shown) | gyrB with GyrA | ATPase activity, inhibitor | – | – | IC50 | 5.16 µM
C=CC(=O)NC(CC(=C)C)C(=O)N1CC(C(=O)NC(Cc2ccco2)C(=O)NC)C(c2cccc(C(F)(F)F)c2)C1 (stereo not shown) | Replicase polyprotein 1ab main protease | – | – | – | IC50 | > 100 µM
Cc1cnc(N)c(S(=O)(=O)N(C)CC(=O)Nc2ccc(N3CCN(C)CC3)c(Cl)c2)c1 | Dihydrolipoyl dehydrogenase | enzyme activity, inhibitor | – | with: 50 nM enzyme | IC50 | 0.128 µM
C=CC(=O)NC(CC(=C)C)C(=O)N1CC(C(=O)NC(C(=O)NC)C(C)CC)C(c2cccc(C(F)(F)F)c2)C1 (stereo not shown) | Replicase polyprotein 1ab, main protease (rep, Human coronavirus HKU1, UniProt P0C6X2) | – | – | – | IC50 | > 100 µM
COc1cc(CN2CCN(C)CC2)ccc1Nc1ncc2c(n1)N(C13CC4CC(CC(C4)C1)C3)C(=O)N(c1c(C)cccc1C)C2 | SIK1 (Homo sapiens, UniProt P57059) | enzyme activity, inhibitor | – | – | IC50 | > 0.5 µM
CCn1c(NCc2ccc(N3N=C(c4ccccc4)CC3c3ccccc3)cc2)nc2ccccc21 (stereo not shown) | Genome polyprotein protease | enzyme activity, inhibitor | – | – | IC50 | 6.5 µM
CC1(C)OC2OC(C(CCO)NCCCCCCCCCCNC(CCO)C3OC4OC(C)(C)OC4C3OCc3ccccc3)C(OCc3ccccc3)C2O1 (stereo not shown) | DNA ligase A | enzyme activity, inhibitor | – | 1 h, 25 °C, 10% DMSO, with: 50 µM NAD+ | IC50 | 260 ± 4 µM
Cc1cc(S(=O)(=O)N(C)CC(=O)Nc2ccc(N3CCOCC3)c(Cl)c2)c2[nH]ncc2c1 | Dihydrolipoyl dehydrogenase | enzyme activity, inhibitor | – | with: 50 nM enzyme | IC50 | 0.029 µM
COC1OC2COC(c3ccccc3)OC2C(NC(=S)SCc2ccccc2)C1O (stereo not shown) | Adenosylmethionine-8-amino-7-oxononanoate aminotransferase (Mycobacterium tuberculosis, UniProt P9WQ81) | inhibitor, biochemical | – | – | IC50 | 100 µM
CC1(C)OC2OC(C(CCO)NC(=O)Nc3cccc(NC(=O)NC(CCO)C4OC5OC(C)(C)OC5C4OCc4ccccc4)c3)C(OCc3ccccc3)C2O1 (stereo not shown) | DNA ligase A | enzyme activity, inhibitor | – | 1 h, 25 °C, 10% DMSO, with: 50 µM NAD+ | IC50 | 85 ± 1.3 µM
CC[C@H](C)[C@H](NC(=O)[C@H](CO)NC(=O)[C@H](Cc1ccc(O)cc1)NC(=O)[C@H](CC(=O)O)NC(=O)[C@H](CO)NC(=O)[C@@H](NC(=O)[C@H](Cc1ccccc1)NC(=O)[C@@H](NC(=O)CNC(=O)[C@@H]1CCCN1C(=O)[C@H](C)NC(=O)[C@@H](N)Cc1ccc(O)cc1)[C@@H](C)O)[C@@H](C)CC)C(=O)N[C@@H](C)C(=O)N[C@@H](CCSC)C(=O)N[C@@H](CC(=O)O)C(=O)N[C@@H](CCCCN)C(=O)N[C@H](C(=O)N[C@@H](CCCNC(=N)N)C(=O)N[C@@H](CCC(N)=O)C(=O)N[C@@H](CCC(N)=O)C(=O)N[C@@H](CC(=O)O)C(=O)N[C@@H](Cc1ccccc1)C(=O)N[C@H](C(=O)N[C@@H](CC(N)=O)C(=O)N[C@@H](Cc1c[nH]c2ccccc12)C(=O)N[C@@H](CC(C)C)C(=O)N[C@@H](CC(C)C)C(=O)N[C@@H](C)C(=O)N[C@@H](CCC(N)=O)C(=O)N[C@@H](CCCCN)C(=O)NCC(=O)N[C@@H](CCCCN)C(=O)N[C@@H](CCCCN)C(=O)N[C@@H](CC(N)=O)C(=O)N[C@@H](CC(=O)O)C(=O)N[C@@H](Cc1c[nH]c2ccccc12)C(=O)N[C@@H](CCCCN)C(=O)N[C@@H](Cc1c[nH]cn1)C(=O)N[C@@H](CC(N)=O)C(=O)N[C@@H](CC(C)C)C(=O)N[C@H](C(=O)N[C@@H](CCC(N)=O)C(=O)O)[C@@H](C)O)C(C)C)[C@@H](C)CC | Gastric inhibitory polypeptide receptor (Mus musculus, UniProt Q0P543) | – | – | 4 h, 4 °C | IC50 | 0.00794 µM
O=C1C=CC(=O)c2cn(Cc3ccccc3)cc21 | Genome polyprotein protease | enzyme activity, inhibitor | – | – | IC50 | > 50 µM

A few entries again:
Compound | target or system | assay | system | conditions | endpoint | result
CCOCC1C(c2ccc(Cl)c(Cl)c2)CC2CCC1N2C (stereo not shown) | SLC6A3 (Homo sapiens, UniProt Q01959, F326A) | transporter uptake, inhibitor, radiometric | – | – | IC50 | 0.816 µM
